Published values from different studies.
Each numbered part is a random draw from the data of one study; scales do not carry over between parts. Positions count from the first letter of the parent shown.

Series 1 — technique: RNA Bind-n-Seq; form: RNA; sample: in vitro; tested at: not given; setting: RNA with constant flanks, ends assumed; baseline: input RNA pool; direction: higher = stronger binding
Target: RING finger protein unkempt homolog, zinc fingers 1-6, GST-SBP tag (UNK, Homo sapiens, UniProt Q9C0B0, residues 30-357)
All sequences stand within: GGGAGUUCUACAGUCCGACGAUC … CAACAGAGGAUUGAGCAUCA
Construct (chain): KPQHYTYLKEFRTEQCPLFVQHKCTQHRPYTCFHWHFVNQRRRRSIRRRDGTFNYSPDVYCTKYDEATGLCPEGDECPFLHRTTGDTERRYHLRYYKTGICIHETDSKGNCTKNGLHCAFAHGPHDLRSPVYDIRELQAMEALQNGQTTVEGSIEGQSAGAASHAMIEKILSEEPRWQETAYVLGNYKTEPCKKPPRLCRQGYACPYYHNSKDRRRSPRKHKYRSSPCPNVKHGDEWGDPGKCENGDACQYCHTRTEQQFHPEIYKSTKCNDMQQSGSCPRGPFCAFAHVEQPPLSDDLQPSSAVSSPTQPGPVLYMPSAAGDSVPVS
Strand | bound/input enrichment [ratio]
CAUUUAGCAUCAUUUGGGAAAGUCAAGCAGUGUGUGAAUUUUGUGAUUGGACUUUUGAAAUCCGGUGGGCUGAUUAAUUUUUUGAUUUUCCUUCAGAGGGGAAAGUUUGCAACUUUGACA | 0.396
UCUGCAGAGCUGAGGGCGCCGUCUUCGGCCAGGCCGUGACACGGUGAAUUAAAGUCGGCUACCGAUUUCUGUGAAAAUGUCGGUUCUUAUAUCACAGAGUGUGAUAAAUUAUGUGGAAGA | 0.136
CCUCUUUUCCAGUCUCAUGUUGAAGAUCUUUAUGUAGAAGGACUUCCUGAAGGAAUUCCUUUCCGAAGGCCAUCUACUUACGGAAUUCCUCGCCUGGAGAGGAUAUUACUUGCAAAGGAA | 0.198
AUUAAUUGGACAGAACAGAACUACCCUCAAGGGGGGAAAGAGAGUAACAUGUCAGCGUCCGUGGAGAGAGCGAUAGAAGCACUCCAAGGAGAGACGCGCUAUUAUAAUGACCCCCGCUUU | 0.0949
UUUCUUCCCCCUACCUCUGUGGCUGGUGCCACUCUGUACUCAGUGGCAAUGUAUGGUGGAUCCGUUCUUUUCAGCAUGUUCCUUCUGUAUGAUACUCAGAAAGUAAUCAAACGUGCAGAA | 0.396
CUGAAUAGCAAUAAAUAUUUUCCCAGCAGGGUUAGCAUAAAAGAAUCAUCUGUAGCAAAACCCGGAUCAGUGUGCCGUAGGAUUUAUAGAAUAUUUUCACAUGCCUAUUUUCAUCACCGG | 7.51
GGUAAGCUCAUCGCAGUGAUCGGAGACGAGGACACGGUGACUGGUUUCCUGCUGGGCGGCACCGGGGAGCUUAACAAGAACCGCCAUCCCAAUUUCCUGGUGGUGGAGAAGGAUACAACC | 0.168
AGAUGCAGAGCCAGGCCCCCUGGAAGAGCUUGCAGCAACCCCUCCUUCCUUCAGUUUCAACCCGACUUCUAUCAAGUCUACUUUCUGGCCCUGGCAGCGGACUGGCUCCAAGCUCCCUAC | 0.228
GUGAAAUACGCGUACUACGACACUGAACGCAUCGGAGUUGACCUGAUCAUGAAGACCUGCUUCCGCCCCAACAGAGUGAUUGGACUCUCAAGUGACUUGCAGCAAGUAGGAGGGGCAUCA | 0.0786
GAUGAACCGGCCAUCAUUGUACAUCCAAAUUGGGCUGCAAAAAGUGGCAAGUUUGAUUGCCGCAUCAUGUCUUUGAGUGUCCUAUUGGACUACAGAUUAGAGGAUAAUAAAGAACAUUCA | 0.257
GCAAGGCAGAGCCACCAGAAGAGGGCACCUAGUUUCCAUGACAAAUAUGGGAAUGCUAUAUCCGCAGGUGGAGCCAUCUUCUGUGUUUCUACAUGGACAUAUACAGCCACACAAAUUGGA | 0.286

Series 2 — technique: DHFR PCA, deep sequencing; sample: yeast; with: (+)-ABA 1.4 µM; baseline: wild-type fitted maximum; direction: higher = stronger binding
Target: ABI1, truncated, D143A, DHFR fusion (Arabidopsis thaliana)
Setting: methotrexate growth selection, single substitutions
Starting sequence: PYL1, truncated, DHFR fusion (Arabidopsis thaliana); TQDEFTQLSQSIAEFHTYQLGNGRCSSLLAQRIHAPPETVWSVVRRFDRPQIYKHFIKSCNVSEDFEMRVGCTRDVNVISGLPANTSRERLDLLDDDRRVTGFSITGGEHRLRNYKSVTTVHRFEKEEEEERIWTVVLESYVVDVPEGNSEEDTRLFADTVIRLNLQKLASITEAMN
Change | relative binding score [%]
L28F | 0.7
D97F | 31.8
R69H | 47.5
E64Y | 19
E125S | 66.8
R111M | 20.8
T101A | 21.6
T86W | 96.3
T154V | 55.4
V145A | -13.1
E64S | 57.8
L112Q | 1.03
V43S | -6.74

Series 3 — target: CCND1, cyclin fold, Cln2 fusion (human); technique: yeast growth competition, sequencing; sample: yeast; setting: weak parent motif; baseline: not given; direction: higher = stronger binding
Starting sequence: CDC25A docking peptide (human); PPHRRRLLFACSP
Change | normalised enrichment score
PPHRRRLLFAVSP [C11V] | 0.149
PPQRRRLLFACSP [H3Q] | 0.074
PFHRRRLLFACSP [P2F] | 0.306
PPHRRFLLFACSP [R6F] | -0.16
PPHRRRLLFACSF [P13F] | 0.233
PPHRMRLLFACSP [R5M] | 0.767
PPHMRRLLFACSP [R4M] | -0.0195
HPHRRRLLFACSP [P1H] | 0.427
PPHRRRLLFHCSP [A10H] | -0.0492
PPHRRALLFACSP [R6A] | -0.0705
PPHHRRLLFACSP [R4H] | -0.498
PPHRRRLLFAGSP [C11G] | 0.141
PPHRRRLVFACSP [L8V] | 0.0997
PPHRWRLLFACSP [R5W] | 0.437
PGHRRRLLFACSP [P2G] | 0.497
PPHRRRLQFACSP [L8Q] | -0.642
FPHRRRLLFACSP [P1F] | -0.236
PPHRRRLLPACSP [F9P] | -0.402
PPHRRRLLVACSP [F9V] | -0.021
PPHRRRLLHACSP [F9H] | -0.165
PPHRRRSLFACSP [L7S] | -0.218
PPHRRRLGFACSP [L8G] | 0.0127
PPHRRRLLYACSP [F9Y] | -0.106
PPHRRRHLFACSP [L7H] | -0.11
PPKRRRLLFACSP [H3K] | -0.607

Series 4 — technique: RNA Bind-n-Seq; form: RNA; sample: in vitro; tested at: 1 µM; setting: whole 134-nt RNA, ends assumed; with: 150 mM KCl; baseline: input library; direction: higher = stronger binding
Target: Ras GTPase-activating protein-binding protein 1, C-terminal RGG region (G3BP1, Homo sapiens, UniProt Q13283)
Chain of UniProt Q13283 (whole entry, looked up): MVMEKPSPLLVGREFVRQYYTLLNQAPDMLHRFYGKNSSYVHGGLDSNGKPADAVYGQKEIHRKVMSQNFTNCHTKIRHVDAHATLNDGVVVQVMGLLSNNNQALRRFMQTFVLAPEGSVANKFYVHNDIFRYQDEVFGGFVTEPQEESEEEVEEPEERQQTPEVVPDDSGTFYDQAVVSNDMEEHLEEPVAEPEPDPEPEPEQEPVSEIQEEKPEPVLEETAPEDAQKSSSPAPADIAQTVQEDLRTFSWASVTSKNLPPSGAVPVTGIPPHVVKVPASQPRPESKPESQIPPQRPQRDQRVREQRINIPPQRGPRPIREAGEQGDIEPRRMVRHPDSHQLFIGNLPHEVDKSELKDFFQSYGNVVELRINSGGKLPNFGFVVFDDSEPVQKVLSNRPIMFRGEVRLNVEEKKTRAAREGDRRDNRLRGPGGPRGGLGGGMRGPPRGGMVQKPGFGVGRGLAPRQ
All sequences stand within: GGGAGUUCUACAGUCCGACGAUC … UGGAAUUCUCGGGUGUCAAGG
Strand | log2 enrichment
UGGGAGGUGGAUUUUGUUUACUUUUUUAGCUCAUUUCCAGGGGUGGGAAUUUUUUUUUAAUAUGUGUCAUGAAUAAAGUUGUUUUUGAAA | 1.92
UCGGAUGGCUUCGCAUUUCCCCAAUACCCCAUUAAACCGUAUCAUCUGAAGAGGAUCCACAGAGCUGUCUUACAUGGUAAUCUAGAGAAA | -0.797
CACAGACAACACGCACCCACACAGACACAGAGGGAACGGGUUGGGAUGGGGACAGGGUGCACAGCAGGGCGGGGUAGGACCCCAGCCCCU | 0.352
UGGGAGGUGGAGUUUGUUUAUUUUUUUAGCUCAUUUCCAGGGGUGGGAAUUUUUUUUUAAUAUGUGUCAUGAAUAAAGUUGUUUUUGAAA | 3.6
ACCAUGCAGGUGGGCAUCUUUGGGAAGUGGGGCAAGGGGGGGAUAGGGAGGGGGGUAACACUUUGGGAACAGGGGGUCCCAGGUCGUUUC | 1.73
CACAGACAACACGCACCCACACAGACACAGAGGGAAGGGGUUGGGAAGGGGACAGGGUGCACAGCAGGGCGGGGUAGGACCCCAGCCCCU | -0.89
UCCGCACACCCGGCCUGUCACCCUGCUUUCCCUGCCUCUACUUGACUUGGAAUUGGCUGAAGACUACACAGGAAUGCAUCGUUCCCACUC | 0.668
UGGAGCCCAACCUGUGCCGCUCAGUCCUCAUUGCCAACACGGUCCGGCAGAUCCAAGAGGAGAUGACGCAGGAUGGGACGUGGCGCACAG | -1.39
CCUGUGCUACACAUCGUAUGUACCGAAUCGGGCCCCCCCGGCCCCCCCGGGCCCCCCCGGAAAGUAUUAUGUUACGCCGUUCGGAUCUGC | -1.02
CAAGUCCUGUGCUACACAUCGUAUGUACCGAAUCGGGAGGGAAAAAGGGUUUGGGAAAGUAUUAUGUUACGCCGUUCGGAUCUGCACUUC | 1.89
AAGUCCUGUGCUACACAUCGUAUGUACCGAAUCGGGGAAAAGGAAAAGGGAAAAGGGAAAGUAUUAUGUUACGCCGUUCGGAUCUGCACU | -1.63
CACAGACAACACGCACCCACACAGACACAGAGGGAAGGGGUUGGGAUGAGGACAGGGUGCACAGCAGGGCGGGGUAGGACCCCAGCCCCU | -0.188
UUGGGUUCAAUAUACGGAGAGUGCCCUGUGCCAAAGCCACGAGUUGAUCGUCCAAGAAAAGUUCCUGUGAUACAAGAGGAGAGGGCAAUG | -2.02
GCCAUGCAGGUGGGCAUCUUUGGGAAGUGGGGCAAGGGGGGGAUAGGGAGGGGGGUAACACUUUGGGAACAGGUGGUCCCAGGUCGUUUC | -1.16

Mixed results
Molecule | target | test | system | conditions | how to read | endpoint | value
PhoQ, residues 284 288 289 292 302 303 SSCCRF | PhoP, residues 12 14 15 18 19 IQFRS (Escherichia coli, UniProt P23836) | Sort-seq, refers to: YFP reporter | E. coli | PhoQ-PhoP variant library, with: 10 µM Mg2+ | baseline: high Mg2+ state, higher = stronger signaling | fold induction | 7.61

Repeated from above (series 2):
Change | relative binding score [%]
E125S | 66.8
T86W | 96.3
L28F | 0.7
E64Y | 19
D97F | 31.8
